# Measurements collected from several papers.
# A part holds a random share of what one study measured.
# Sequence of UniProt Q9NWZ3 (whole entry, looked up): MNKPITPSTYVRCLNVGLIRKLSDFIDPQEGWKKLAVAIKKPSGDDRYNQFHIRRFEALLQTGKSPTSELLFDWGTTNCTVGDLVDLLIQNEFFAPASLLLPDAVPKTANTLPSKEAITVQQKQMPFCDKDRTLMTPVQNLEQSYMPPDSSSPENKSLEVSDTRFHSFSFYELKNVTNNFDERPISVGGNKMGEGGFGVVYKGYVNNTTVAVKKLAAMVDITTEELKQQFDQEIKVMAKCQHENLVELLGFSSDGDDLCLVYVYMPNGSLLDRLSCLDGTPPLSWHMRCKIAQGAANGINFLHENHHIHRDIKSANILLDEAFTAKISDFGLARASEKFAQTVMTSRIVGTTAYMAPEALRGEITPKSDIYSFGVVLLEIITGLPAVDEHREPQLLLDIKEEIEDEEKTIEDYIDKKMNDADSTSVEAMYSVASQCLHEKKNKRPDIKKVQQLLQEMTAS
# Sequence of UniProt Q9H1R3 (whole entry, looked up): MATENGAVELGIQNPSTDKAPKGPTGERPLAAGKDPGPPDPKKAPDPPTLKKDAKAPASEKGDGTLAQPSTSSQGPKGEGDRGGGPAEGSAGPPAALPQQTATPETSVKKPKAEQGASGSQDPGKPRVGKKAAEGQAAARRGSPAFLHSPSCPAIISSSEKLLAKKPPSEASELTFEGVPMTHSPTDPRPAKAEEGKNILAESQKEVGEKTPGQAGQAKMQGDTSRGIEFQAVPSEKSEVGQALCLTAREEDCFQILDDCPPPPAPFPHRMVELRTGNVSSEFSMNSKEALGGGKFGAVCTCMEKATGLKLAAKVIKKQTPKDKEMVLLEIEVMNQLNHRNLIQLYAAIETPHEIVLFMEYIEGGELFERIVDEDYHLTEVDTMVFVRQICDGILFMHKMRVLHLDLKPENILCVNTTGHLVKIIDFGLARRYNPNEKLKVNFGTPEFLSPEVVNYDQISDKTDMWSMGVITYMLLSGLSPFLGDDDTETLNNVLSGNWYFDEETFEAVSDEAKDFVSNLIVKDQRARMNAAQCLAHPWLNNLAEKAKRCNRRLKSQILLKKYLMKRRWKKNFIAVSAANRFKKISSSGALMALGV
# Sequence of UniProt Q9BXA7 (whole entry, looked up): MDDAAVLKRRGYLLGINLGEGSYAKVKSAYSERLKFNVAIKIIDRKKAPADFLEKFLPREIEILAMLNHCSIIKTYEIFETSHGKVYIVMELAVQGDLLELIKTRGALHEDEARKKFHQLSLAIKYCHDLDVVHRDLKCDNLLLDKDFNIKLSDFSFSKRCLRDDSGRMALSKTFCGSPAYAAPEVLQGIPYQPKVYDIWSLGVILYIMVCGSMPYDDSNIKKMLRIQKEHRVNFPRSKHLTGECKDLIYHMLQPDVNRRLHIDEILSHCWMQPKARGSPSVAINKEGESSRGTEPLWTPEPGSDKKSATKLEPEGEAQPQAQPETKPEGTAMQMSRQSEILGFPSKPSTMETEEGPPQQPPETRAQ
# Sequence of UniProt P45985 (whole entry, looked up): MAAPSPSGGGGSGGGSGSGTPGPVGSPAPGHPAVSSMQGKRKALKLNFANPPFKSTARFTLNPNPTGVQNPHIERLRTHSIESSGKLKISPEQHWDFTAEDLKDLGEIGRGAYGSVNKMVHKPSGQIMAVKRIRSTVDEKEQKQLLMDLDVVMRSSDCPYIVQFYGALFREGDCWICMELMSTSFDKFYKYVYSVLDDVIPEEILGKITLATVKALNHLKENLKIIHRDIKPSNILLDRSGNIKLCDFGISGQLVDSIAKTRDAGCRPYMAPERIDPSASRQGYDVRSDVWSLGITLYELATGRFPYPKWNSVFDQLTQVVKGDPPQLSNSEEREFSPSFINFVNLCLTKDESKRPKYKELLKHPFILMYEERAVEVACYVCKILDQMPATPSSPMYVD
# Sequence of UniProt Q16566 (whole entry, looked up): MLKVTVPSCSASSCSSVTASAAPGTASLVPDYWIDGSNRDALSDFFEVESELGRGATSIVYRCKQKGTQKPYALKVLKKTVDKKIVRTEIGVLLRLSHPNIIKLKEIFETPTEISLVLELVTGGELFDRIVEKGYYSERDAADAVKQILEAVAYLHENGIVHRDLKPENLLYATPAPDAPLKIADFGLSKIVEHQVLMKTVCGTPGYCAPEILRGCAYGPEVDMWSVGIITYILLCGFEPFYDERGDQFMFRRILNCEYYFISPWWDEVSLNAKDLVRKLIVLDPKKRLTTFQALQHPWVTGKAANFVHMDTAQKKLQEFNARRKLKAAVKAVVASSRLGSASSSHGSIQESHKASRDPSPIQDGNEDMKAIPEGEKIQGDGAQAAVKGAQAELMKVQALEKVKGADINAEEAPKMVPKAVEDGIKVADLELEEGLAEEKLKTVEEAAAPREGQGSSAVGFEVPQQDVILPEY
# Sequence of UniProt O00238 (whole entry, looked up): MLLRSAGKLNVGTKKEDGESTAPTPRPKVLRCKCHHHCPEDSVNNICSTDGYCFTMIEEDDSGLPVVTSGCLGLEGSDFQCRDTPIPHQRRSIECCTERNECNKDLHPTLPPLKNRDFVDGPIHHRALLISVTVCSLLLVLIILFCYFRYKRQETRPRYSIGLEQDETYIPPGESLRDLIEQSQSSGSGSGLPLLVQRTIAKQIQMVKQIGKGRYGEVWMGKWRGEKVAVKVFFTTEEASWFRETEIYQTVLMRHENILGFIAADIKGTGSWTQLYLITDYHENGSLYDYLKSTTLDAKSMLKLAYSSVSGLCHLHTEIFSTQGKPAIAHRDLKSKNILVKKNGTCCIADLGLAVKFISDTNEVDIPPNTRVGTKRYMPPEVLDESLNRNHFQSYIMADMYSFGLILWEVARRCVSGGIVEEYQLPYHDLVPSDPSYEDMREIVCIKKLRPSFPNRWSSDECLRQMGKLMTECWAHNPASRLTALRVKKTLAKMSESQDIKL
# Sequence of UniProt P49137 (whole entry, looked up): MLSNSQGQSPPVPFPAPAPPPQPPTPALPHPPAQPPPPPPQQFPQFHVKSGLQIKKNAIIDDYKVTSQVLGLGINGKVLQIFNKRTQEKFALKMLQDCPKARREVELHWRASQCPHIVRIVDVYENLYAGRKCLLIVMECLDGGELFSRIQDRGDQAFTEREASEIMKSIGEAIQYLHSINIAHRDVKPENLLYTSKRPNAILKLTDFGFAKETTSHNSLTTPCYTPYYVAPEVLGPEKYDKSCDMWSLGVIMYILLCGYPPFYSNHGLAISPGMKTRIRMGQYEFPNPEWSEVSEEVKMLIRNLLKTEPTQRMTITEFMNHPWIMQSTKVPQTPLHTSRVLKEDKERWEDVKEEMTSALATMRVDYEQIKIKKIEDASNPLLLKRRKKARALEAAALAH
# Sequence of UniProt P07949 (whole entry, unmodified, looked up): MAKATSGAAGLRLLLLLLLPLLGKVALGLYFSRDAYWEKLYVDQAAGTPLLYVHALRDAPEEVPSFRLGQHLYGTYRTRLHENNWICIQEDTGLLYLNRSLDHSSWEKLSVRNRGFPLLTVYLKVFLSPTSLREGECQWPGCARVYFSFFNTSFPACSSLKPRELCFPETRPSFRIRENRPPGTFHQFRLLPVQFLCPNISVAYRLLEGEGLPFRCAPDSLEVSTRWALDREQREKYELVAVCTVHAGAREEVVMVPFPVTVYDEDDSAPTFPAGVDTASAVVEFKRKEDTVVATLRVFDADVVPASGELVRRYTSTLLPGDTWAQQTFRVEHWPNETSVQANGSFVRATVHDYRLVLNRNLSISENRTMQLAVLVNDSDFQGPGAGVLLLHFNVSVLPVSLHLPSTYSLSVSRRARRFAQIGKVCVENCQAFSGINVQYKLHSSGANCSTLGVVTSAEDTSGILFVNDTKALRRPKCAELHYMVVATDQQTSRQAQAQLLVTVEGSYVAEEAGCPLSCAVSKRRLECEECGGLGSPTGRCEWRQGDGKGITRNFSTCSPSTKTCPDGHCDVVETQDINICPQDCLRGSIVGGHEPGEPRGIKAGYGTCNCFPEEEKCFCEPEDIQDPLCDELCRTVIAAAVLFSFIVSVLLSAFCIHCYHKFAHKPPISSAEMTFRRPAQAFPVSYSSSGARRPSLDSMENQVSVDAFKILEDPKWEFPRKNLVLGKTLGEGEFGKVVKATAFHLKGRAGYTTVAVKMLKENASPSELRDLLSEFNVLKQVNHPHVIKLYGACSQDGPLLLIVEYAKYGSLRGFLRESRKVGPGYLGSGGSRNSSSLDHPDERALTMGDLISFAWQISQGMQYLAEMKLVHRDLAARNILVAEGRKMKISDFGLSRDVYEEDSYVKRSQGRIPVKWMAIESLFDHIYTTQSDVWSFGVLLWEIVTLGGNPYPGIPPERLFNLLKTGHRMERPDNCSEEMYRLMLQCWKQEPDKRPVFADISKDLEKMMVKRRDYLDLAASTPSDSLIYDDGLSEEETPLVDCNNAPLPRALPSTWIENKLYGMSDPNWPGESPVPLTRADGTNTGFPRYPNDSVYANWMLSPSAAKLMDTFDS

# Block 1 — observed: cell-free assay; method: competition with immobilised ligand; concentration: 1 µM
# Compound: CC1=C(C#N)[C@@H](c2ccc3[nH]nc(C)c3c2)C(C#N)=C(c2ccc(Cl)cc2)N1
target,remaining binding [%]
"ERN1 (Homo sapiens, UniProt O75460)",100
"BMPR1B (Homo sapiens, UniProt O00238)",100
"MYLK2 (Homo sapiens, UniProt Q9H1R3)",91.4
"MAP2K4 (Homo sapiens, UniProt P45985)",71.5
"MAPK11 (Homo sapiens, UniProt Q15759)",99.8
"GSK3B (Homo sapiens, UniProt P49841)",69.6

# Block 2 — observed: enzyme activity; action: inhibitor; concentration: 0.5 µM; baseline: control
# Target: Interleukin-1 receptor-associated kinase 1 (IRAK1, Homo sapiens, UniProt P51617)
# Sequence of UniProt P51617 (whole entry, looked up): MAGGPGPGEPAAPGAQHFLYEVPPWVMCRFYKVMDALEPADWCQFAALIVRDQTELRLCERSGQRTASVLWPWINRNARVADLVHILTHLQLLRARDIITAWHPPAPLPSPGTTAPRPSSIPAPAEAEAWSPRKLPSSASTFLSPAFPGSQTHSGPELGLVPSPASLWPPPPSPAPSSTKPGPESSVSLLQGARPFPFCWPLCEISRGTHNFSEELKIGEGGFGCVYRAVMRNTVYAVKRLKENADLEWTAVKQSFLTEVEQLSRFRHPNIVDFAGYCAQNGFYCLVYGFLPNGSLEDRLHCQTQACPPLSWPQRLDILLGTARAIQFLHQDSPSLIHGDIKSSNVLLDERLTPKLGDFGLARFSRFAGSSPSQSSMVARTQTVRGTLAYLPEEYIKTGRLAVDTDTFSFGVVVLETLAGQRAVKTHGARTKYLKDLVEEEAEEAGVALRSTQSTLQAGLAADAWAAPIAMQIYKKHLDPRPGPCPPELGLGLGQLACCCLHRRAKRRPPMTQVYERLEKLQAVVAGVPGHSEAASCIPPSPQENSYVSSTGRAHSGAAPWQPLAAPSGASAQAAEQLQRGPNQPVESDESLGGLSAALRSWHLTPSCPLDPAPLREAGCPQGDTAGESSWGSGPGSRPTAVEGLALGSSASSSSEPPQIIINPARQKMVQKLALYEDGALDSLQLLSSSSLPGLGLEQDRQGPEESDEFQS
SMILES,remaining activity
O=C(O)c1ccc2c3c1cccc3c(=O)n1c3ccccc3nc21,61.1%
CO[C@H]1C[C@@H]2CC[C@@H](C)[C@@](O)(O2)C(=O)C(=O)N2CCCC[C@H]2C(=O)O[C@H]([C@H](C)C[C@@H]2CC[C@@H](O)[C@H](OC)C2)CC(=O)[C@H](C)/C=C(\C)[C@@H](O)[C@@H](OC)C(=O)[C@H](C)C[C@H](C)/C=C/C=C/C=C/1C,118%
COc1ccc(OC)c2c(=S)c3ccccc3[nH]c12,91.1%
O=C1NC(=O)C(c2cn(CCCn3ccnc3)c3ccccc23)=C1Nc1ccccc1,118%
Nc1ccc2ncnc(NCCc3ccc(Oc4ccccc4)cc3)c2c1,107%
O=C(Nc1cccc(Nc2cc(Nc3cccc(C(F)(F)F)c3)ncn2)c1)C1CC1,111%
O=C1NC(=O)C(c2cn(CCCO)c3ncccc23)=C1c1cnccn1,76.6%
N#CC(C#N)=C(N)/C(C#N)=C/c1ccc(O)cc1,123%
O=S(=O)(c1cccc2cnccc12)N1CCCNCC1,86.2%
COc1ccc(C(=O)Nc2sc3c(c2C(N)=O)CCCC3)cc1OC,79.8%
O=c1c2ccccc2[nH]c(=S)n1CCN1CCC(=C(c2ccc(F)cc2)c2ccc(F)cc2)CC1,106%
CN(C)c1ccc(C=C2C(=O)Nc3ccccc32)cc1,102%
Cn1c2ccccc2c2c3c(c4c5ccccc5n(CCC#N)c4c21)CNC3=O,6.43%
Cn1sc(=O)n(Cc2ccccc2)c1=O,116%
Cc1cccc(-c2[nH]c(C(C)(C)C)nc2-c2ccc3c(c2)OCO3)n1,118%
O=C(CCCc1ccc(-c2ccccc2F)cc1)Nc1ccc(O)cc1,100%

# Block 3 — method: exponential regression of PRP log k'
Compound,"logD (1,9-decadiene/water)"
COCC(=O)NCCCCCC(=O)N[C@H](C(=O)N1C[C@H](O)C[C@H]1C(=O)NCc1ccc(-c2scnc2C)cc1)C(C)(C)C,-6.21
CCCCOc1ccc(-c2ccc(C(=O)NCCCCCC(=O)N[C@H](C(=O)N3C[C@H](O)C[C@H]3C(=O)NCc3ccc(-c4scnc4C)cc3)C(C)(C)C)cc2)cc1,1.46
Cc1ncsc1-c1ccc(CNC(=O)[C@@H]2C[C@@H](O)CN2C(=O)[C@@H](NC(=O)CCCCCOC(=O)CC(c2ccccc2)c2ccccc2)C(C)(C)C)cc1,1.25
Cc1ncsc1-c1ccc(CNC(=O)[C@@H]2C[C@@H](O)CN2C(=O)[C@@H](NC(=O)CCCCCOC(=O)CC23C[C@H]4C[C@@H](C2)C[C@@H](C3)C4)C(C)(C)C)cc1,1.96
CCCCOc1ccc(-c2ccc(C(=O)OCCCCCC(=O)N[C@H](C(=O)N3C[C@H](O)C[C@H]3C(=O)NCc3ccc(-c4scnc4C)cc3)C(C)(C)C)cc2)cc1,3.23
Cc1ncsc1-c1ccc(CNC(=O)[C@@H]2C[C@@H](O)CN2C(=O)[C@@H](NC(=O)CCCCCNC(=O)CC23C[C@H]4C[C@@H](C2)C[C@@H](C3)C4)C(C)(C)C)cc1,-0.444

# Block 4 — observed: cell-free assay; concentration: 1 µM
# Structure (SMILES): C[C@H]1CC[C@H](n2c3cnccc3c3cnc(Nc4ccc5c(n4)CCN(C(=O)CO)C5)nc32)CC1
target,remaining signal
"IRAK4 (Homo sapiens, UniProt Q9NWZ3)",63%
"CAMK4 (Homo sapiens, UniProt Q16566)",100%
"PRKACA (Homo sapiens, UniProt P17612)",100%
"TSSK1B (Homo sapiens, UniProt Q9BXA7)",91%
"RET (Homo sapiens, UniProt P07949, V804M)",51%
"MAPKAPK2 (Homo sapiens, UniProt P49137)",100%
"STK38 (Homo sapiens, UniProt Q15208)",82%

# Excerpt of the above (block 2):
SMILES,remaining activity
COc1ccc(OC)c2c(=S)c3ccccc3[nH]c12,91.1%
O=C1NC(=O)C(c2cn(CCCn3ccnc3)c3ccccc23)=C1Nc1ccccc1,118%
Nc1ccc2ncnc(NCCc3ccc(Oc4ccccc4)cc3)c2c1,107%
O=C(Nc1cccc(Nc2cc(Nc3cccc(C(F)(F)F)c3)ncn2)c1)C1CC1,111%
O=C1NC(=O)C(c2cn(CCCO)c3ncccc23)=C1c1cnccn1,76.6%
N#CC(C#N)=C(N)/C(C#N)=C/c1ccc(O)cc1,123%
